Published values from different studies.
Each line is one published result; not all experiments were run side by side. ± gives the spread as reported.
Chain of UniProt P18089 (whole entry, looked up): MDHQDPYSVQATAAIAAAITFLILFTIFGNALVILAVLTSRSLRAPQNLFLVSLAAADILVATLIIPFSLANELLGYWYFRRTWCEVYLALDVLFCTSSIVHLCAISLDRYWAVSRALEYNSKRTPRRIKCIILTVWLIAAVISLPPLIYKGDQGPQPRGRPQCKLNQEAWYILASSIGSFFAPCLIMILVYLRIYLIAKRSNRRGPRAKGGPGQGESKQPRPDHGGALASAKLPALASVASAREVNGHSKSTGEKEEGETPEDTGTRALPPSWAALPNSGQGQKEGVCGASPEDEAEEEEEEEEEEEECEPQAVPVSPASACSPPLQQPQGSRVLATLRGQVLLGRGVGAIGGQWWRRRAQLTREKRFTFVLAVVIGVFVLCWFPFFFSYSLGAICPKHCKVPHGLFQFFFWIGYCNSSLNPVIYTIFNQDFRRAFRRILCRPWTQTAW
Chain of UniProt P23977 (whole entry, looked up): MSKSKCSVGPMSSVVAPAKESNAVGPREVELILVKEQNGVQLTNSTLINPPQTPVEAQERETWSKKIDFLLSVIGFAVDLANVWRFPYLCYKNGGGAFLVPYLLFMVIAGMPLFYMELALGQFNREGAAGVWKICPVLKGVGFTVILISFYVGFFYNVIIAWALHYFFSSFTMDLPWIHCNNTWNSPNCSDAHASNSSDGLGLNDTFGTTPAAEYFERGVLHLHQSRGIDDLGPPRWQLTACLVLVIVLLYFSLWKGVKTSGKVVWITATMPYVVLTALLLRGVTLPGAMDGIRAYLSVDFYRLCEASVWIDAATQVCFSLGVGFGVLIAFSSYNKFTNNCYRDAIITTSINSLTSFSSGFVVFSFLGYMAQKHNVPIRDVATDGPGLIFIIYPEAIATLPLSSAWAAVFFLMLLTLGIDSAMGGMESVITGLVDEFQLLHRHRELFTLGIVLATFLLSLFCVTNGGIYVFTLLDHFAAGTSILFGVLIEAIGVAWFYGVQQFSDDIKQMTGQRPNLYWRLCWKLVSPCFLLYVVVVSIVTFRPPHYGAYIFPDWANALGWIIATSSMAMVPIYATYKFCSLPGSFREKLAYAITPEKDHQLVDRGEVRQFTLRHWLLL
Chain of UniProt Q8XFG0 (whole entry, looked up): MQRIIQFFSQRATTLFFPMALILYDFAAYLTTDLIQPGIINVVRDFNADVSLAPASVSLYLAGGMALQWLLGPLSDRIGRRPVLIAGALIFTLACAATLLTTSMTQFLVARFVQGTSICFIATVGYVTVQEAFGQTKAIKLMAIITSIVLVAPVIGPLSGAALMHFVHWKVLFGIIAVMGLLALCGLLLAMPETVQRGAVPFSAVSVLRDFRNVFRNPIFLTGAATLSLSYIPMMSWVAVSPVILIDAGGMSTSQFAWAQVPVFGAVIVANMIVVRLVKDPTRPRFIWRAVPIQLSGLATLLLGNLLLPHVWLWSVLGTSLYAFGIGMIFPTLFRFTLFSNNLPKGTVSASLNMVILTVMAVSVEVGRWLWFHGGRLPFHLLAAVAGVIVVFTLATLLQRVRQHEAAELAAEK
Chain of UniProt P49116 (whole entry, looked up): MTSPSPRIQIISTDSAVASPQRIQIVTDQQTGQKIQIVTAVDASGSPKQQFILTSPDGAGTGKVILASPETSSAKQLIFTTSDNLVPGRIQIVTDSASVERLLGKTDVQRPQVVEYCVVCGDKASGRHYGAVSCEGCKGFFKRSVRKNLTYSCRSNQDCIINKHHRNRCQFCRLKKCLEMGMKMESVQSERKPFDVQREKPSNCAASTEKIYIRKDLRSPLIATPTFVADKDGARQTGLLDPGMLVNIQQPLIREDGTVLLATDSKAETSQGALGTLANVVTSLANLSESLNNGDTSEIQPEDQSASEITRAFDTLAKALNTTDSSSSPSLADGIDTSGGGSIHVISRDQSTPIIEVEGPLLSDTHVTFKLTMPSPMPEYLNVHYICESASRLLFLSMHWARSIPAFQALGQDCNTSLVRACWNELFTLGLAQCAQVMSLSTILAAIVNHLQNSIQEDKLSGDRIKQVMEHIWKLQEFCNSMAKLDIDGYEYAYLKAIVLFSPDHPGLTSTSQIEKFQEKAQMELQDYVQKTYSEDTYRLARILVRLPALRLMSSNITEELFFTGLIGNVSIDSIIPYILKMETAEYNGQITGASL
Chain of UniProt Q8NET8 (whole entry, unmodified, looked up): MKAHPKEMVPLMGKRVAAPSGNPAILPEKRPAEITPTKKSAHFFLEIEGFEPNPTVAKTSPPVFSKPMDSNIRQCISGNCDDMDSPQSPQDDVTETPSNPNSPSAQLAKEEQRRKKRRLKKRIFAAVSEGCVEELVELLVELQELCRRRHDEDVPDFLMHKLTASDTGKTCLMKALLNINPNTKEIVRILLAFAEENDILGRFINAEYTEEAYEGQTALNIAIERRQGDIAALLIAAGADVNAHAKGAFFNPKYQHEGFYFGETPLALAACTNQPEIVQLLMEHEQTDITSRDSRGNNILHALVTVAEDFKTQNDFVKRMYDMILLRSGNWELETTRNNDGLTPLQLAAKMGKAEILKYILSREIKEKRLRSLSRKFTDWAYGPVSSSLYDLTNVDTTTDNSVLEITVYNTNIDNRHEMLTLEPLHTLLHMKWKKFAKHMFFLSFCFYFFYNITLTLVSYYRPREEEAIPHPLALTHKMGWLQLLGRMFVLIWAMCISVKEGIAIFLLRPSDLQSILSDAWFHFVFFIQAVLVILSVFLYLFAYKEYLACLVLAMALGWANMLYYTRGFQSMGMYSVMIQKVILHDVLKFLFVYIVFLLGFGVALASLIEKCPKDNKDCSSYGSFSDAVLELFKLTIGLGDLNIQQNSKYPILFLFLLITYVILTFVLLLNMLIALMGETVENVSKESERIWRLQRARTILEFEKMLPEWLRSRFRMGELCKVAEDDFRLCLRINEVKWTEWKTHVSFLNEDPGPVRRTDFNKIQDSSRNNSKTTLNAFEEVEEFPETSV

CCCC(NC)C(=O)c1ccc2c(c1)OCO2 (racemic) gave an IC50 of 120 ± 10 nM (Sodium-dependent dopamine transporter (Slc6a3, Rattus norvegicus, UniProt P23977); dopamine uptake, inhibitor; rat caudate synaptosomes; together with: [3H]dopamine 5 nM).
For C#CC[C@@H](N)C(=O)N[C@H](CO)C(=O)N[C@@H](C(=O)N[C@H](CO)C(=O)N[C@H](CCC(=O)O)C(=O)N[C@@H](C(=O)N[C@H](CCC(N)=O)C(=O)N[C@H](CC(C)C)C(=O)N[C@H](CCSC)C(=O)N[C@H](Cc1c[nH]cn1)C(=O)N[C@H](CC(N)=O)C(=O)N[C@H](CC(C)C)C(=O)NCC(=O)N[C@H](CCCCN)C(=O)N[C@H](Cc1c[nH]cn1)C(=O)N[C@H](CC(C)C)C(=O)N[C@H](CC(N)=O)C(=O)N[C@H](CO)C(=O)N[C@H](CCSC)C(=O)N[C@H](CCC(=O)O)C(=O)N[C@H](CCCNC(=N)N)C(=O)N[C@@H](C(=O)N[C@H](CCC(=O)O)C(=O)N[C@H](Cc1c[nH]c2ccccc12)C(=O)N[C@H](CC(C)C)C(=O)N[C@H](CCCNC(=N)N)C(=O)N[C@H](CCCCN)C(=O)N[C@H](CCCCN)C(=O)N[C@H](CC(C)C)C(=O)N[C@H](CCC(N)=O)C(=O)N[C@H](CC(=O)O)C(=O)N[C@@H](C(N)=O)C(C)C)C(C)C)[C@H](C)CC)C(C)C, the Ki was greater than 58000 nM (hemagglutinin influenza A/California/07/2009 H1N1).
CSc1cccc(CC(=O)N[C@H]2CCOC2=O)c1 has an IC50 of 2250 nM (expR (Pectobacterium carotovorum, UniProt Q4KS34)).
CC[C@@H](NC(=O)CNC(=O)[C@@H](CC(C)C)NC(=O)CNC(=O)[C@H](N)CCC(N)=O)C(=O)N[C@H](CC(=O)O)C(=O)N[C@H](CCC(=O)O)C(=O)N[C@H](CC(N)=O)C(=O)N[C@H](CC(C)C)C(=O)N[C@H](CCC(N)=O)C(=O)NCC(=O)N[C@H](Cc1ccccc1)C(=O)N[C@H](C)C(=O)N[C@@H](C(=O)N[C@H](C)C(=O)N[C@@H](C(=O)N[C@H](CCCCN)C(=O)N[C@H](CCSC)C(=O)NCC(=O)N[C@H](C)C(=O)N[C@H](Cc1ccc(O)cc1)C(=O)N[C@H](CCCCN)C(=O)N[C@H](C)C(=O)N[C@H](Cc1c[nH]c2ccccc12)C(=O)O)C(C)C)C(C)C has a Ki of 10000 nM (hemagglutinin influenza A/California/07/2009 H1N1).
For CCC1(c2cccc(O)c2)CCCCN(C)C1 (stereo not drawn), the Kd was 28.8 nM (Nuclear receptor subfamily 2 group C member 2, ligand-binding domain (Homo sapiens, UniProt P49116); SPR imaging).
With C#CC[C@@H](N)C(=O)N[C@H](CO)C(=O)N[C@@H](C(=O)N[C@H](CO)C(=O)N[C@H](CCC(=O)O)C(=O)N[C@@H](C(=O)N[C@H](CCC(N)=O)C(=O)N[C@H](CC(C)C)C(=O)N[C@H](CCSC)C(=O)N[C@H](Cc1c[nH]cn1)C(=O)N[C@H](CC(N)=O)C(=O)N[C@H](CC(C)C)C(=O)NCC(=O)N[C@H](CCCCN)C(=O)N[C@H](Cc1c[nH]cn1)C(=O)N[C@H](CC(C)C)C(=O)N[C@H](CC(N)=O)C(=O)N[C@H](CO)C(=O)N[C@H](CCSC)C(=O)N[C@H](CCC(=O)O)C(=O)N[C@H](CCCNC(=N)N)C(=O)N[C@@H](C(=O)N[C@H](Cc1ccc(O)cc1)C(=O)N[C@H](C)C(=O)N[C@H](CC(C)C)C(=O)N[C@H](CCCNC(=N)N)C(=O)N[C@H](Cc1ccccc1)C(=O)N[C@H](Cc1c[nH]cn1)C(=O)N[C@H](CC(C)C)C(=O)N[C@H](CCC(N)=O)C(=O)N[C@H](CC(C)C)C(=O)N[C@@H](C(N)=O)C(C)C)C(C)C)[C@H](C)CC)C(C)C the Ki was 35000 nM (hemagglutinin influenza A/California/07/2009 H1N1).
The IC50 of C[C@@H](Cc1ccccc1)N(C)Cc1ccccc1 is reported as 2810 nM (Alpha-2B adrenergic receptor (ADRA2B, Homo sapiens, UniProt P18089); inhibitor).
With NC[C@H]1O[C@H](O[C@H]2[C@H](O)[C@@H](O[C@H]3O[C@H](CO)[C@@H](O)[C@H](N)[C@H]3O)[C@H](N)C[C@@H]2N)[C@H](O)[C@@H](O)[C@@H]1O the Kd was 240 ± 40 nM (Multidrug resistance protein MdtM (mdtM, Salmonella typhi, UniProt Q8XFG0)).
For CCCc1cc(O)c2c(c1)OC(C)(C)[C@@H]1CCC(C)=C[C@@H]21, the EC50 was 3590 ± 190 nM (Transient receptor potential cation channel subfamily V member 3 (TRPV3, Homo sapiens, UniProt Q8NET8, A560L); calcium uptake, agonist; HEK293S; mutant A560L, site 1).

Repeated from above:
CC[C@@H](NC(=O)CNC(=O)[C@@H](CC(C)C)NC(=O)CNC(=O)[C@H](N)CCC(N)=O)C(=O)N[C@H](CC(=O)O)C(=O)N[C@H](CCC(=O)O)C(=O)N[C@H](CC(N)=O)C(=O)N[C@H](CC(C)C)C(=O)N[C@H](CCC(N)=O)C(=O)NCC(=O)N[C@H](Cc1ccccc1)C(=O)N[C@H](C)C(=O)N[C@@H](C(=O)N[C@H](C)C(=O)N[C@@H](C(=O)N[C@H](CCCCN)C(=O)N[C@H](CCSC)C(=O)NCC(=O)N[C@H](C)C(=O)N[C@H](Cc1ccc(O)cc1)C(=O)N[C@H](CCCCN)C(=O)N[C@H](C)C(=O)N[C@H](Cc1c[nH]c2ccccc12)C(=O)O)C(C)C)C(C)C has a Ki of 10000 nM (hemagglutinin influenza A/California/07/2009 H1N1).
